Measured values collected from several papers.
Every numbered part comes from another study and shows a few of its results, in no order.

Block 1
Target: POU, POU domain (Salpingoeca helianthica)
Method: Spec-seq
Form: double-stranded DNA, one strand shown
Matrix: in vitro
Concentration: not given
Setting: whole probe, mean of replicates
Baseline: not given
Reading: lower = stronger binding
Shared flanks, not repeated: GAGTCGTCTCGTCAGCAC … CCGTAGAGCACTCAGGTC
Residues (chain): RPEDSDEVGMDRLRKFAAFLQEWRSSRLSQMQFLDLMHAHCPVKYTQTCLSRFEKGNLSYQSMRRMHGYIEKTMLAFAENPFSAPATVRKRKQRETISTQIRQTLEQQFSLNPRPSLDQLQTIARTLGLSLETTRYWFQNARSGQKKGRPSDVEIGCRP
Oligonucleotide	relative binding energy [ln ratio]
ATGCGATT	1.18
ATCAAAAT	1.08
ATCCACAT	1.43
GATTTAAT	-0.265
GTATTAAT	-0.108
ATATAGAT	1.08
ATGCTCCG	1.42
ATGCTAAG	1.28
ATGCAGGG	1.22
ATGCTCTG	1.07
ATGCGATC	1.03
ATCGGGAT	1.57
CCACTAAT	0.65
ATGCTATC	1.16
ATGGCAAT	1.3
ATCCAAAT	1.32
ATATCTAT	0.86
ATGCGTTA	0.838
GTACTAAT	0.395

Block 2
Target: RNA binding protein fox-1 homolog 2, RRM domain, GST-SBP tag (RBFOX2, Homo sapiens, UniProt O43251-10, residues 100-194)
Method: RNA Bind-n-Seq
Form: RNA
Matrix: in vitro
Concentration: 365 nM
Setting: natural RNA segment, single round, ends assumed
Baseline: no-protein control
Reading: higher = stronger binding
Shared flanks, not repeated: GGGAGUUCUACAGUCCGACGAUC … UGGAAUUCUCGGGUGCCAA
Target sequence (chain): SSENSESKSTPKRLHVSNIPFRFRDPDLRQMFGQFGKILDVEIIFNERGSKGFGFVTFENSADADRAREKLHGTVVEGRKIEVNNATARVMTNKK
Oligonucleotide	RBNS enrichment (R)
UGCAGUAUCUCCUAACUUCAGUGCACUCUGCUAGAACAGUACAUUUGCUGUAUUUACUGAAAUCUCUGGCACAGAAGGAAGUGUGUUUGCCUCACACACCAUUUGUCCCA	0.374
GGACUGCUGAGCUAGUCCAGGGGUAGCCGGUCCCCUCAUGCAUCUGCUGCCUUAGCUUCUAGAACGGAGCAAGCUUUUACGUACCUAGGUGACAUGUAGAAAAAUUUACA	0.25
AAGUAAAUAAAAGCCUUCGGUAAUAAUCAUGACAAUACAAGAGGCUGAGCUAGGCUACAGGGGAAAACUAUUGUGUUGUAAAGUUGCAUCGCUAUUUUAUAUUAAAAUGU	0.463
UUGUUUUUAGCCAUGUAACUACAAACAGAUAUUCUCUUGAUGUCUUAGUAAAUUUGCAUUUGAUAUAUCAUUGAUGAGAUUUUGUUGUUAUGUAAUAUUCUUUGGCUACG	0.359
UCCUGAGGCUGCCCCAAGGCCUACGGGUUAAAGCCAAUAGCUGCUCACAUGCAACAACGGAAGGAGAUUCAAGAGUCUGCCAUCCCUUAGCAGCCCCUAAGUGGGCCUCU	0.231
GGGACAAACAACCAAGCUAUGGGUGACAGAGGCUCUCUCCUGGUGCCUGCACCUGCACUCUAGUGACCCUGGGUGCCGCCAGACCCUUCUCUUCUACAAAGACCCCAGCA	1.46
UUCUGACCUAAGUGGCAGGGCCCAGAAAUCCUGAAAACCUCCCGCUGCCUUUUGUGAUACUUCCUGUGCUCCCUCAGAGAGAAACGGAGUGACCUUUUGUCCUUUACCUG	0.894
UAGCUUAGAAUACUGCAAAGGAUAAGCUAAUUGAAUGCCUUGAAAGUAUUAUCCACUGGUCAGAUGGUCAACUUUUUUCAGUAUUAUUUAUAGUUGGCACUUGAUUGCAG	3.2
UGGGUGUUGCUGCCCUGCUUGUCAGCUCUGCAAAUGAGCGCUGCUCCCCAGCUUGCGCAGAGACGUGUGCGUCCCACGUCCCUUGCCGUGCUCUCCCUUUUGGUAGGUGU	0.355
UUUGGCUUUUGGUAAAUUCAAUCCAGGAAAGACUAGCAUGUGCACUUUAUCUCAUAAUCUUCCAGUACAUAUGCUCUCAGUUGGGAUAGCAGUUCAUUUCCAUUAGGCAG	2.22
UUUAUUUUGGAAUUGAACUAUUAUUAAAUUGUAUCUAAUCCUGGAUUACAGUUUAAUUAAUUAUUCUUAGUGCUUAAGGCUUCAUAAAGUAAUUUUUCCAACCUUUUUUU	0.647
UCAGGGCAGGGACCAAGCGUGCACAUUCUUUCCAUUUCAUAGUUGAUACUUUUAUAUGUACUGCUGCUGCUGCUCUUUGACAUUGCCUGCCUGCCUGGCACCUUUUCAUU	0.362

Block 3
Target: Interferon regulatory factor 7, full length, phosphomimetic (IRF7, Homo sapiens, UniProt Q92985, residues 1-503, S101K/S471D/S472D/S475D/S476D/S477D/S483D/S484D/S487D)
Method: protein-binding microarray
Form: double-stranded DNA, one strand shown
Matrix: in vitro
Concentration: 250 nM
Setting: 60-bp whole probe
With: salmon DNA 0.4 mg/ml
Baseline: random background probes
Reading: higher = stronger binding
Shared flanks, not repeated: GCCTAGCAC … GTCTTGATTCGCTTGACGCTGCTG
Target sequence (chain): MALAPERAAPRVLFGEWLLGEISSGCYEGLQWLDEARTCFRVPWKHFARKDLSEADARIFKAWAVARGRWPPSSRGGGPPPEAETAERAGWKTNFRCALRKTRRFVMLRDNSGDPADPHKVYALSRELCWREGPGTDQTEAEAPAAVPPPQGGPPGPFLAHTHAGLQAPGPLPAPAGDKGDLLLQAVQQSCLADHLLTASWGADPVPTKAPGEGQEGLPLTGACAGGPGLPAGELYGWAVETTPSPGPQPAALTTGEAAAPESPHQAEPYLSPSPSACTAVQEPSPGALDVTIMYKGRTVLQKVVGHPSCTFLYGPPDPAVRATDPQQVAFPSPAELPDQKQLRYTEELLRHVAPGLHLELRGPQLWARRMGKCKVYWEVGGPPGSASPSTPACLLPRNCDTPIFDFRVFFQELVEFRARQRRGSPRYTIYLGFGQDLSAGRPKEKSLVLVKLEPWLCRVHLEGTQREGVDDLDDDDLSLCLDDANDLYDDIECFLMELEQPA
Oligonucleotide	log fluorescence [z-score]
CTAGATTTCGGGTTTCGATTAGTGCTA	7.77
GACGATATGGGGTTTCGAGACGTGCTA	1.59
GACGATATCGGGTTTGGAGACGTGCTA	-0.432
TTAGAACTTAGTCTCGATTAGTGCTAG	2.08
GACGGACTGCTTTTCCTCACGTGCTAG	0.45
TGTCTTCCCCATCTTGTTCCGTGCTAG	2.28
GACGGTATCGGTATCGGTACGTGCTAG	1.41
GACGATTTCAGAATCGAGACGTGCTAG	0.371
TTAGGTATCGGACAGGGTTAGTGCTAG	-0.186
TTAGGTTTCGGGTATCGGTTAGTGCTA	7.92
TCATTTATGCACTCTCTAACTGTGCTA	0.885
TTAGGTTTCGGGACTGGTTTAGTGCTA	4.28
CCCATGCTGGATGAAGTACAGTGCTAG	-0.342
ATGAGTCTCAAAATTAGAGAGTGCTAG	-0.0385
GACGGAGTGGACTTTCGGGACGTGCTA	-0.832
ATTGCTTCCTCTTTCACTGGGTGCTAG	1.08
TTAGGTATCCTTAACCTTTAGTGCTAG	-0.285
ATATATATCATTTAATTATAGTGCTAG	0.477
TGAGGACTGCTACTGCTTTAGTGCTAG	-0.952
AAGGGTCTCTTGTTCTCTCTGTGCTAG	0.223
GACGGATTCCTTATCCTGACGTGCTAG	0.577
GACGGTTTCGGGTTTCGCGACGTGCTA	10.9
TTAGGTCACCTTTTCCTTTAGTGCTAG	1.19
GATGGTCTCGGACTGGGGACGTGCTAG	-0.00361
TTAGAACTAAGTATCGATTAGTGCTAG	1.09

Block 4
Target: Prothrombin, mature alpha-thrombin (F2, Homo sapiens, UniProt P00734)
Method: aptamer microarray, sandwich
Form: DNA with 2'F-ANA
Matrix: in vitro
Concentration: 200 nM
Setting: whole 15-mer aptamer, many near background
With: Cy3 exosite-II aptamer, 400 nM
Reading: higher = stronger binding
Oligonucleotide: GGTTGGTGTGGTTGG
Modification	mean fluorescence intensity [a.u.]
2'F-ANA at 2 5 8 11 12 14	45.4
2'F-ANA at 1 2 3 4 7 8 10 12 13	66.1
2'F-ANA at 1 2 6 11 12 15	324
2'F-ANA at 1 5 10 11 12 13 14	49.8
2'F-ANA at 4 9 10 13	73.5
2'F-ANA at 3 5 6 8 9 10 13 14	54.1
2'F-ANA at 2 4 6 7 9 10 13 14 15	60.4
2'F-ANA at 3 4 6 7 11 12 14	318
2'F-ANA at 1 2 4 6 8 10 12 13 14	48.6
2'F-ANA at 1 4 5 6 7 8 10 13 14	51.6
2'F-ANA at 3 5 7 11	119
2'F-ANA at 4 7 11 14	96.9
2'F-ANA at 1 2 4 5 8 9 11 12	105
2'F-ANA at 5 8 9 11 13 15	55
2'F-ANA at 1 2 3 6 7 8 9 10 14	89.4
2'F-ANA at 3 5 6 7 8 10 11 12 13 15	76.8
2'F-ANA at 1 2 3 5 7 9 10 11 14 15	50.6
2'F-ANA at 2 3 7 8 10 13 14 15	286
2'F-ANA at 2 4 6 7 8 9 10 15	85.3

Block 5
Target: Histone acetyltransferase KAT6A, winged helix 1, GST fusion (KAT6A, Homo sapiens, UniProt Q92794, residues 1-85)
Method: protein binding microarray
Form: double-stranded DNA, one strand shown
Matrix: in vitro
Concentration: not given
Setting: 8-mer, flanks averaged, mean of 2 arrays, mostly near background
Baseline: not given
Reading: higher = stronger binding
Target sequence (chain): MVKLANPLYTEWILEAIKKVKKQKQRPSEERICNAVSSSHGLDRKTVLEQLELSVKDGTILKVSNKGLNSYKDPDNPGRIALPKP
Oligonucleotide	E-score
ATTTAGCC	0.0249
AATATTCT	-0.067
ATCGGAAT	-0.0283
CCCCCCAC	-0.275
ACTTTTTA	-0.0679
CTCGCTGC	0.0647
CGCCCTCA	0.0237
ATATTCTA	-0.191
CCAAAAGG	-0.225
CCCTTGCC	-0.0209
CCCGGAGG	0.0214
AATACTAC	-0.17
AGACTGCA	-0.18
ATCTTCCC	-0.118
CTGGGATA	-0.168
CTATGTCA	-0.198
AAACCCCA	-0.33
ACGCCAGG	0.0242
CACCAAAG	-0.059
GGAGTAGA	0.0193
GTAATAAA	0.0614
AAATGATG	-0.273
TGATTAAA	-0.0631
GAAAACCA	-0.108
CACCTTGA	-0.179

Some of these lines once more (block 5):
Oligonucleotide	E-score
AATACTAC	-0.17
AGACTGCA	-0.18
ATCTTCCC	-0.118
CTGGGATA	-0.168
CTATGTCA	-0.198
AAACCCCA	-0.33
ACGCCAGG	0.0242
CACCAAAG	-0.059
GGAGTAGA	0.0193
GTAATAAA	0.0614
